Measurements gathered from unrelated publications.
Numbered parts are unrelated; each lists some results of a single study. Substitutions count along the parent as printed.

Set 1
Target: Prothrombin, mature alpha-thrombin (F2, Homo sapiens, UniProt P00734)
Technique: aptamer microarray, sandwich
Molecule type: DNA with 2'F-ANA
Sample: in vitro
Concentration: 200 nM
Notes: whole 15-mer aptamer, many near background
Together with: Cy3 exosite-II aptamer, 400 nM
Direction: higher = stronger binding
Measurement: mean fluorescence intensity
Strand: GGTTGGTGTGGTTGG
2'F-ANA at 1 4 5 7 9 11 12 14: 47.8 a.u.
2'F-ANA at 1 6 8 9 13 14 15: 53.3 a.u.
2'F-ANA at 1 2 4 7 8 9 10 11 13 15: 53.7 a.u.
2'F-ANA at 1 3 4 5 6 8 11 12 13 14: 83.8 a.u.
2'F-ANA at 3 4 5 6 10 12 13: 72.7 a.u.
2'F-ANA at 1 2 4 6 7 8 12 13 14: 58.6 a.u.
2'F-ANA at 1 2 6 7 8 9 11 12 15: 261 a.u.
2'F-ANA at 2 5 7 9 10 11 12 13 14: 45.8 a.u.
2'F-ANA at 1 4 6 13 14: 51.3 a.u.
2'F-ANA at 2 4 6 9 11 12: 378 a.u.
2'F-ANA at 2 6 8 10 14: 83.7 a.u.
2'F-ANA at 2 4 5 8 11 13 14 15: 51.9 a.u.
2'F-ANA at 3 11: 1130 a.u.
2'F-ANA at 5 9 10: 48.2 a.u.
2'F-ANA at 2 3 4 7 8 9 10 12 13: 295 a.u.
2'F-ANA at 3 4 7 8 10: 354 a.u.
2'F-ANA at 2 4 8 9 11 15: 237 a.u.
2'F-ANA at 3 4 5 6 7 8 9 12 13 15: 120 a.u.
2'F-ANA at 1 4 6 8 10 14 15: 45.7 a.u.
2'F-ANA at 1 2 5 6 9 14: 42.4 a.u.
2'F-ANA at 2 6 7 8 10 11 12 13 14: 78.8 a.u.
2'F-ANA at 3 11 12 13 14: 698 a.u.

Set 2
Target: Sal-like protein 4, full length isoform B (SALL4, Homo sapiens, UniProt Q9UJQ4-2, residues 1-616)
Technique: universal PBM
Molecule type: double-stranded DNA, one strand shown
Sample: in vitro
Concentration: not given
Notes: 8-mer, flanks averaged, mean of replicates
Direction: higher = stronger binding
Measurement: E-score
Target sequence (chain): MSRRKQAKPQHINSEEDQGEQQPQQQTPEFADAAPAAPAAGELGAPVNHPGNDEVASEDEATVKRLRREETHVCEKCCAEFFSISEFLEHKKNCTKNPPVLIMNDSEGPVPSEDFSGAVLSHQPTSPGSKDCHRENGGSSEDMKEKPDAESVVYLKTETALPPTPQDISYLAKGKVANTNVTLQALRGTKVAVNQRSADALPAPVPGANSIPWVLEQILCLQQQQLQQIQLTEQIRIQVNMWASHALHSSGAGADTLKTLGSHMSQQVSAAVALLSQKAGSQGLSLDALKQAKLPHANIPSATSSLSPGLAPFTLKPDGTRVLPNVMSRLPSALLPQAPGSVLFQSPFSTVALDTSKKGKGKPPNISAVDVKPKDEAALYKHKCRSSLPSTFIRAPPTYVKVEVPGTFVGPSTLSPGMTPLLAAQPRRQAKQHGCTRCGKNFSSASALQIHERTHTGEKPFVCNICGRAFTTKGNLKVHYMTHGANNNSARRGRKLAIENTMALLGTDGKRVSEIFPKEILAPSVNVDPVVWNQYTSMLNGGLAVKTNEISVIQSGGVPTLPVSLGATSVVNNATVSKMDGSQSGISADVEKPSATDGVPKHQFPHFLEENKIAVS
AAGGCACC: -0.25
GGAATAAC: -0.00315
ATATTCTG: 0.283
AGGTTTCC: -0.113
TAGCGTGA: 0.0391
ATCGACGC: -0.032
ACAGCCGG: -0.334
ACGTGCTC: -0.206
TCGAACGA: -0.0583
CGTGCCGC: -0.266
GCGACGTA: -0.0762
CTCTGTGC: -0.194
GTGTTCGA: -0.0863
AATAACGA: 0.289
CACCACAA: 0.00116
GAGTCGGC: -0.224
AATGACAT: 0.183
CGAAGGGC: -0.256

Set 3
Target: RNA binding protein fox-1 homolog 2, RRM domain, GST-SBP tag (RBFOX2, Homo sapiens, UniProt O43251-10, residues 100-194)
Technique: RNA Bind-n-Seq
Molecule type: RNA
Sample: in vitro
Concentration: 365 nM
Notes: natural RNA segment, single round, ends assumed
Reference: no-protein control
Direction: higher = stronger binding
Measurement: RBNS enrichment (R)
Target sequence (chain): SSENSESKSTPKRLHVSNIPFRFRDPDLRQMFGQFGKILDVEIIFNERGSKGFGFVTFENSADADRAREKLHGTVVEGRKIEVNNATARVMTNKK
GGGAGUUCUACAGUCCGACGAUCCAAAGGGCAAGUCAGAAGUUGUUUAUAAAUUACAAAAUAAAGGCAUAUUAUGAACUCUUAUUUUCUGGUUAUAUGACAUUGUCUGAGCUCACUGUGGCAGUGGAGCACAUUGGAAUUCUCGGGUGCCAA: 0.483
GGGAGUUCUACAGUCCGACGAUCGGCUCUCACUUCCUCUGCCCUUCCCUCUGAGCAGCCAUAGUGACAUUUACUAUGAAUUUACUUCCUCCCAAGAAUUUGGACUGGCCGUCAGACUGUUGCUACAUACAAUUUGGAAUUCUCGGGUGCCAA: 0.607
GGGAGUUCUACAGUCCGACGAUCUAAUUUUUAUUUAAACCCUUGCACUUCUCAGUGCCUGGCAGCUGCAAGGGUCCCAGCUGCCCCGAGGCAGUCUGUGGCCCUGGUUGAAGGAAGCACAAACUAGAUGUCUGUGGAAUUCUCGGGUGCCAA: 0.288
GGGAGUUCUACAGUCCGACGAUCCUCCAUGAAUUUCUGCCUAUGAGGCAUUUGCCUCCAAGUAGCCUAUCCUUCAGAAUUACUUGUAGGAUAUUCCUCUCUUCAUGUUCUAAUAAACUUCUACAUCAUCAUCAUGGAAUUCUCGGGUGCCAA: 0.524
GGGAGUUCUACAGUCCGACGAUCAUGGCCACUGAGUAGCCCCAGAGGUCGCACUCCGCAGGAGGACUGAGGCCAUGUGCCAUUCUCCCGGGCCCAGCGCCCGGCCGUCACCCCACCCGAUGACCUGCAUGAAGUGGAAUUCUCGGGUGCCAA: 1.84
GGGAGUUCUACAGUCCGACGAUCGAGAUGCCAGCAGCCUCUGUCGCCCUUAGUCAUAUAACCAAAAUCCAGACCUUAUCCACAACCCGGGGCUUGGAAAGGAAGGUAUUUUGGAAUCACACCCUCCGGUUAUGUGGAAUUCUCGGGUGCCAA: 0.588
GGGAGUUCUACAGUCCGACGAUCUCAUAUUAUAGGGGACCAGAUUUGUAAUAUAGAAUUCUCCAUAACAUGAAUGAAAUUAAUUCUGUCCAAGCCAGCAUGGUGGCUUCAUAUUAAGUAGUAACAGAAGUCUGUGGAAUUCUCGGGUGCCAA: 32.8
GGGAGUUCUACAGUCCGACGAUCCAUUCUGUAAAUCCUGAUGAUCGAUUUUGUCUAAGUAGCCCCACUGAGGCGUUGAGAAUGGGGCAUGCAGAUUAUAAAAACACAACUGGAGAAAUCAGCAGCAAAGAAGAUGGAAUUCUCGGGUGCCAA: 0.866

Single results of other studies
CCND3: CCND3, cyclin fold, Cln2 fusion (human)
P1: CDAN1 docking peptide (human); RGARSQLFPPTEA; partner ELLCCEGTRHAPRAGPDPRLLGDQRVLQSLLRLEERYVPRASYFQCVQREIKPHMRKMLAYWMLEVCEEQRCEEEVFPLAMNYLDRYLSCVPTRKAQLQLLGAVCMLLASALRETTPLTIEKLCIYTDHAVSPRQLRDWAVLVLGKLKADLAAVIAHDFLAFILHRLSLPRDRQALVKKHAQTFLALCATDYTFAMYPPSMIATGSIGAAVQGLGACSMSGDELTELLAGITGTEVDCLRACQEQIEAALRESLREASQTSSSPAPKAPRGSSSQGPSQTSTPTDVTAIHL
GSPLKKLFTSTAL
binding enrichment score (human cyclin B2; peptide binding, yeast competitive growth sequencing; peptide, Saccharomyces cerevisiae, cyclin B2-Cln2 fusion; concentration not given, combined libraries; direction not given): -0.843

P1 T11A
normalised enrichment score (CCND3; yeast growth competition, sequencing; yeast; weak parent motif; reference: not given, higher = stronger binding): 0.0882

P1 F8A
normalised enrichment score (CCND3; yeast growth competition, sequencing; yeast; weak parent motif; reference: not given, higher = stronger binding): 0.393
